Published values from different studies.
Compare with care: the assays were run in different laboratories. Numbers after ± are the reported error.

| Structure (SMILES) | organism | test | test system | setting | how to read | endpoint | value |
| --- | --- | --- | --- | --- | --- | --- | --- |
| CCCCCc1ccc2c(c1O)C(c1ccc(OC)c(OC)c1)OC2=O (stereo not shown) | Naegleria fowleri trophozoites | AlamarBlue | ATCC 30808 | 48 h, 37 °C | baseline: J774A.1 CC50 over IC50 ATCC 30808 | selectivity index | ≥ 28.2 |
| O=C(O)[C@]1(O)C[C@H](CP(=O)(O)O)[C@@H](O)[C@H](O)C1 | Anabaena variabilis | uptake |  | 250 µM, 48 h |  | depletion from culture supernatant | no effect |
| COc1ccc(C2OC(=O)c3ccc(C(C)C)c(O)c32)c(OC)c1OC (stereo not shown) | Naegleria fowleri trophozoites | AlamarBlue | ATCC 30808 | 48 h, 37 °C | baseline: J774A.1 CC50 over IC50 ATCC 30808 | selectivity index | ≥ 1.47 |
| COc1ccc(-n2c(=O)c(C(=O)C3C(=O)CCCC3=O)nc3c(C)cccc32)cc1 | Oryza sativa var. Kinmaze | crop injury |  | paddy water application, 28 days, transplanted at two-leaf stage |  | ED20 | 100 g a.i./10 a |
| CC(=O)OC(CF)Cn1cnc([N+](=O)[O-])c1 (stereo not shown) | Salmonella enterica serovar Typhimurium | Ames test, Bernstein slope | TA98 |  |  | mutagenic potency | 0.55 ± 0.08 revertants/µg |
| CCCCCc1ccc2c(c1O)C(c1ccc(OC)c(OC)c1OC)OC2=O (stereo not shown) | Naegleria fowleri trophozoites | AlamarBlue | ATCC 30215 | 48 h, 37 °C | baseline: J774A.1 CC50 over IC50 ATCC 30215 | selectivity index | ≥ 16.6 |
| CC(=O)OC(CCl)Cn1cncc1[N+](=O)[O-] (stereo not shown) | Salmonella enterica serovar Typhimurium | Ames test | TA100 | 72 h |  | mutagenic potency | 8.18 ± 0.15 revertants/µg |
| CO[C@@H]([C@@H](O)[C@H](O)C(=O)CO)[C@@H](C)O | Anabaena variabilis | uptake |  | 250 µM, 48 h |  | depletion from culture supernatant | no effect |
| CC=C1C(OC2OC(CO)C(O)C(O)C2O)OC=C(C(=O)OC)C1CC(=O)OCC1OC(OCCc2ccc(O)cc2)C(O)C(O)C1O (stereo not shown) | mouse gut microbiota | anaerobic incubation | male Balb/c mice, intestinal contents, anaerobic medium | 10 µg/mL, 15 min |  | metabolized fraction | 43.8% |
| CCOc1ccc2cc(-c3nn(CC4CCN(C)CC4)c4ncnc(N)c34)ccc2n1 | Wien-I | LC-MS/MS | crossbred piglets (Landrace x Large White), infected | oral, 10 mg/kg twice daily, 0 h before dose 1, day 2 post-infection |  | plasma concentration | 0 nM |
| CCCc1ccc2c(c1O)C(c1ccc(OC)c(OC)c1OC)OC2=O (stereo not shown) | Naegleria fowleri trophozoites | AlamarBlue | ATCC 30808 | 48 h, 37 °C | baseline: J774A.1 CC50 over IC50 ATCC 30808 | selectivity index | 1.6 |
| CC(=O)OC(CCl)Cn1cnc([N+](=O)[O-])c1 (stereo not shown) | Salmonella enterica serovar Typhimurium | Ames test | TA100 | 72 h |  | mutagenic potency | 6.6 ± 0.63 revertants/µg |
| COc1ccc(-n2c(=O)c(C(=O)C3C(=O)CCCC3=O)nc3c(F)cccc32)cc1 | Oryza sativa var. Kinmaze | crop injury |  | paddy water application, 28 days, transplanted at two-leaf stage |  | ED20 | > 100 g a.i./10 a |

Repeated from above:
| Structure (SMILES) | organism | test | test system | setting | how to read | endpoint | value |
| --- | --- | --- | --- | --- | --- | --- | --- |
| CCCc1ccc2c(c1O)C(c1ccc(OC)c(OC)c1OC)OC2=O (stereo not shown) | Naegleria fowleri trophozoites | AlamarBlue | ATCC 30808 | 48 h, 37 °C | baseline: J774A.1 CC50 over IC50 ATCC 30808 | selectivity index | 1.6 |
